Experimental data gathered from unrelated publications.
Protocols differ between the studies behind these lines. ± gives the spread as reported.

SMILES	test	test system	setting	Cmax
Nc1ccn([C@@H]2O[C@H](CO)[C@@H](O)C2(F)F)c(=O)n1	HPLC-UV	human, plasma	intravenous, 1000 mg/m^2, mean, before paricalcitol	7250 ng/mL
O=C(O)CCCCCCCCC(=O)O		human, plasma	concentration not given, endogenous baseline diurnal	66.2 ± 9.9 nM
NC(=S)NN=Cc1ncccc1N		human, plasma	intravenous, 50 mg, geometric mean, infusion over 2 h	318 ng/mL
CCCn1cc(C)c2c(=O)[nH]c(-c3cc(S(=O)(=O)N4CCN(CC)CC4)ccc3OCC)nc21		human, plasma	oral, 100 mg, together with: alcoholic beverage 0.5 g/kg	117 ± 82.7 ng/mL
O=C(O)c1ccccc1O		humans, both sexes, plasma	oral, 650 mg aspirin, with alcohol, geometric mean	30100 ng/mL
CN(C)C(=O)c1cc2cnc(Nc3ccc(N4CCNCC4)cn3)nc2n1C1CCCC1		human, mild renal impairment, plasma	oral, 400 mg, geometric mean	421 ng/mL
CC1(COc2ccc3c(c2)ncn3-c2ccc3cccc(N4CCC(N)CC4)c3n2)COC1		human patients, recurrent/progressive HGG or DIPG, serum	oral, 100 mg/m^2, day 1, median	431 nM
C[C@H](O)c1cc(C(=O)N[C@@H](C)Cn2ccc(-c3ccc(C#N)c(Cl)c3)n2)n[nH]1		human, fasted, plasma	oral, 300 mg darolutamide tablet, geometric mean	561 ng/mL
CC(C)n1nc(-c2ccc3oc(N)nc3c2)c2c(N)ncnc21		human patients, plasma	oral, 3 mg once daily, cycle 1 day 1, dose expansion	42.8 ng/mL
CNC(=O)c1ccccc1Sc1ccc2c(/C=C/c3ccccn3)n[nH]c2c1		human, mild hepatic impairment (NCI), plasma	single dose, geometric mean, total drug	36.5 ng/mL
C#C[C@]1(CO)O[C@@H](n2cnc3c(N)nc(F)nc32)C[C@@H]1O		human, plasma	oral, 15 mg, single dose, geometric mean	385 nM
CCNCCCNC/C=C\CNCCCNCC	LC-MS/MS	human cancer patients, plasma	intravenous infusion 60 min, 200 mg, median, cycle 1	1550 ng/mL
COc1ccc2nc([S@@+]([O-])Cc3ncc(C)c(OC)c3C)[nH]c2c1		human, dried blood spots	oral, 10 mg omeprazole, control arm	108 ng/mL
CN(C)C(=O)c1cc2cnc(Nc3ccc(N4CCNCC4)cn3)nc2n1C1CCCC1		human, expansion cohort, plasma	oral, 800 mg, day 8, together with: gemcitabine 1000 mg/m^2	1990 ± 1140 ng/mL
C=CC(=O)N(C)CCOc1c(N)ncnc1-c1cc(F)cc(NC(=O)c2ccc(C3CC3)cc2F)c1C		human, whole blood	oral, 400 mg, single ascending dose, fasted	432 ng/mL
Cc1ccc([C@@H]2O[C@H](CO)[C@@H](O)[C@H](O)[C@H]2O)cc1Cc1ccc(-c2ccc(F)cc2)s1		human, maintenance hemodialysis patients	oral, 300 mg once daily, steady state, median	2410 ng/mL
O=C(O)CCCCCCCCCCCCC(=O)O		human, plasma	concentration not given, endogenous control diurnal	91.2 ± 10.3 nM
Cc1cc(Nc2cc3ncccc3c(N[C@@H]3C[C@H]4CC[C@@H](C3)N4CCC#N)n2)n[nH]1		human, plasma	10 mg single dose, mean	0.233 ng/mL
Cc1cc(C)c(CNC(=O)c2cc(Cl)c3c(c2C)O[C@@](C)([C@H]2CC[C@H](N(C)C)CC2)O3)c(=O)[nH]1	mean	healthy male humans, plasma	oral, 25 mg, day 1, alone, itraconazole group	115 ng/mL
N#CCC1CCN(c2nc(Nc3ccc(N4CCC(O)CC4)cc3)c3c(=O)[nH]ncc3n2)CC1		human, plasma	oral, 20 mg once daily, day 1	67.8 ng/mL

SMILES	test	test system	setting	Cmax
NCCCS(=O)(=O)O		human, plasma	oral, 256.5 mg twice daily, day 7, capsule, fed, dosed days 2-7	974 ng/mL
COc1cc(Nc2c(C#N)cnc3cc(OCCCN4CCN(C)CC4)c(OC)cc23)c(Cl)cc1Cl	item: total drug	human, moderate hepatic impairment, plasma	single dose, NCI classification	62.7 ng/mL
CN[C@@H](C)C(=O)N[C@H]1CN(S(=O)(=O)c2cccc(S(=O)(=O)N3CC[C@H]4CC[C@@H](C(=O)NC(c5ccccc5)c5ccccc5)N4C(=O)[C@@H](NC(=O)[C@H](C)NC)C3)c2)CC[C@H]2CC[C@@H](C(=O)NC(c3ccccc3)c3ccccc3)N2C1=O	LC-MS/MS, noncompartmental	human, plasma	45 mg, cycle 1 day 1	1980 ± 1030 ng/mL
O=C(NO)c1ccc(CN(c2cnccn2)c2cnccn2)cc1		human patients, phase I, plasma	oral, 800 mg twice daily, day 1	1710 ng/mL
COc1ccc([C@@H](O)c2cc(-c3ncnc4cc(N5CCOCC5)ccc34)c(F)cc2Cl)nn1		healthy human volunteers, plasma	oral, 100 mg single dose, oral suspension, fasted, geometric mean	456 ng/mL
Cc1nc(-c2ccc(OCC(C)C)c(C#N)c2)sc1C(=O)O		human	oral, 40 mg once daily, together with: verinurad 0 mg	1240 ng/mL
Cn1ncnc1[C@H]1c2n[nH]c(=O)c3cc(F)cc(c23)N[C@@H]1c1ccc(F)cc1		human patients, plasma	oral, 600 µg/m2 twice daily day 1, day 5, dose level DL5, median, together with: temozolomide 40 mg/m2 daily days 2-6	23.5 ng/mL
NC(=O)c1[nH]cnc1N		human patients, plasma	IV infusion over 1 h, 1000 mg/m^2 DTIC, cycle 2 day 1, staggered with co-drug	6530 ng/mL
Cc1cn(C(=O)c2c(-c3c(Cl)cc(Cl)cc3Cl)noc2C(C)(C)F)c2cccc(/C=C/C(=O)O)c12		human patients	500 mg bid, cycle 1 day 1	16900 ng/mL
CC(C)(Sc1ccncc1-c1ccc(C#N)c2ccccc12)C(=O)O		human, plasma	oral, 10 mg once daily, together with: febuxostat 40 mg	25.5 ng/mL
Nc1ccc(-c2nc([C@H]3CCc4cc(-c5cc(Cl)ccc5-n5cnnn5)cc(=O)n43)c(F)[nH]2)c(F)n1		human, plasma	oral, 250 mg once daily, day 1	1770 ng/mL
CC(C)n1c(Nc2cccnc2)nc2cnc(Nc3ccc(N4CCN(C)CC4)cc3)nc21		human, male, plasma	oral, 150 mg, day 15, together with: rifampin 600 mg daily	74.5 ng/mL
C[C@H](CCC(=O)NCCS(=O)(=O)O)[C@H]1CC[C@H]2[C@@H]3CC[C@@H]4C[C@H](O)CC[C@]4(C)[C@H]3C[C@H](O)[C@]12C		human, plasma	concentration not given, endogenous control diurnal	174 ± 39 nM
C=CC(=O)N1CCC[C@@H](n2c(=O)n(-c3ccc(Oc4ccccc4)cc3)c3c(N)nccc32)C1		human, fed, plasma	oral, 60 mg, geometric mean	11.5 ng/mL
CCCOc1ccc(NC(=O)CN2CCN(C)CC2)cc1-c1nc(CC)c(CC)c(=O)[nH]1		human, fasting, plasma	oral, 10 mg, together with: alcohol 0.5 g/kg	63.7 ± 21.5 ng/mL
Nc1ccn([C@@H]2O[C@H](CO)[C@@H](O)[C@@H]2O)c(=O)n1		human	subcutaneous, 20 mg, cycle 1 day 2, given alone	82.9 ng/mL
CCNCc1cc(Nc2ccnc3cc(Cl)ccc23)ccc1O		human, both sexes, plasma	oral, dose not given, non-fixed combination	875 ng/mL
C#C[C@]1(O)CC[C@H]2[C@@H]3CCC4=CC(=O)CC[C@@H]4[C@H]3CC[C@@]21CC		human female, plasma	single dose oral contraceptive, cpd alone	2.9 ng/mL
CC(C)NC(=O)COc1cccc(-c2nc(Nc3ccc4[nH]ncc4c3)c3ccccc3n2)c1		human, male, fed, plasma	oral, 200 mg, day 3, adjusted geometric mean	2130 ng/mL
CO[C@]1(C(=O)N[C@@H](C)c2ccc(-n3cc(F)cn3)nc2)CC[C@H](c2nc(C)cc(Nc3cc(C)[nH]n3)n2)CC1		human, plasma	oral, 200 mg, geometric mean	594 ng/mL

SMILES	test	test system	setting	Cmax
CCn1cc(C(=O)N2CCOCC2)c(=O)c2cc(NC3Cc4ccccc4C3)cnc21		human male, fed, plasma	oral, 900 mg twice daily, day 1, tablet, arithmetic mean	3960 ng/mL
CN(CC#N)C(=O)C[C@H](Nc1nc2ccccc2[nH]1)c1cccc(C(F)(F)F)c1		human	intravenous infusion, 1 mg/kg, 5 mg/mL formulation	3540 ± 1180 ng/mL
O=C(Nc1cnccc1Cl)N1CCN(Cc2ccc3c(c2)OC(F)(F)O3)CC1		human healthy young men, plasma	oral, 25 mg once daily, day 1, multiple dose mean	144 ng/mL
Cc1cc(-c2nnc(N)nc2-c2ccc(F)cc2)cc(Cl)n1		human patients, plasma	oral, 75 mg capsule once daily, multiple doses, arithmetic mean	538 ng/mL
C=CC(=O)NC1CCN(c2ncc3ncnc(Nc4ccc(Oc5ccc6c(c5)ncn6C)c(C)c4)c3n2)CC1		human, male, plasma	oral, 30 mg, fed, adjusted geometric mean	213 nM
C[C@H](CCC(=O)NCCS(=O)(=O)O)[C@H]1CC[C@H]2[C@@H]3CC[C@@H]4C[C@H](OS(=O)(=O)O)CC[C@]4(C)[C@H]3CC[C@]12C		human, plasma	concentration not given, endogenous control diurnal	216 ± 45 nM
COC(=O)N[C@H](C(=O)N1CCC[C@H]1c1nc2cc([C@H]3CC[C@H](c4cc5nc([C@@H]6CCCN6C(=O)[C@@H](NC(=O)OC)[C@@H](C)OC)[nH]c5cc4F)N3c3cc(F)c(N4CCC(c5ccc(F)cc5)CC4)c(F)c3)c(F)cc2[nH]1)[C@@H](C)OC		healthy human subjects, plasma	oral, dose not given, together with: carbamazepine twice daily	160 ng/mL
N#C[C@H](C[C@@H]1CCCNC1=O)NC(=O)[C@H](CC1CC1)NC(=O)c1cc2cccc(Cl)c2[nH]1		human, plasma	225 mg twice daily, day 5	1940 ng/mL
Cc1cc(-c2nccc3c2ccn3CC(=O)Nc2ccc(-c3cnccn3)cn2)ccn1		human, plasma	oral, 5 mg once daily, day 16, geometric mean	56.9 nM
CC(=O)O.NC(=O)c1cnc(N[C@@H]2CCCC[C@@H]2N)nc1Nc1cccc(-n2nccn2)c1		human, plasma	oral, 33 mg once daily	61.4 ng/mL
Cc1noc(C)c1-c1cc(C(O)(c2ccccn2)c2ccccn2)c2nc(C3CC3)[nH]c2c1		human patients, fasted, plasma	oral, 3 mg once daily, cycle 1 day 15, together with: enzalutamide once daily	84.4 ng/mL
N#CCNC(=O)c1ccc(-c2ccnc(Nc3ccc(N4CCOCC4=O)cc3)n2)cc1		healthy human volunteers, plasma	100 mg momelotinib once daily, day 7, fed, momelotinib alone	228 ng/mL
Cc1nc(Nc2ncc(C(=O)Nc3c(C)cccc3Cl)s2)cc(N2CCN(CCO)CC2)n1		human patients	oral, 85 mg/m^2, day 42	124 ± 67 ng/mL
CC#CC(=O)N1CCC[C@H]1c1nc(-c2ccc(C(=O)Nc3ccccn3)cc2)c2c(N)nccn12		human, plasma	oral, 50 mg twice daily dosing, together with: itraconazole 200 mg	649 ng/mL
O=C1CC[C@H](N2Cc3cc(N4CCN(CC5CCN(c6ccc([C@@H]7c8ccc(O)cc8CC[C@@H]7c7ccccc7)cc6)CC5)CC4)ccc3C2=O)C(=O)N1		human, plasma	oral, 200 mg, together with: rosuvastatin 10 mg	474 ng/mL
COc1cc([C@H]2Oc3cc([C@H]4Oc5cc(O)cc(O)c5C(=O)[C@@H]4O)ccc3O[C@@H]2CO)ccc1O		OATP1B1/1B3 humanized mice, plasma	oral gavage, 500 mg/kg silymarin	1720 nM
C[C@H]1CN(C(=O)CC#N)[C@]12CCN(c1ncnc3[nH]ccc13)C2		healthy human, plasma	oral, 3 mg single, day 1, geometric mean	18.4 ng/mL
Cc1cc(C)c(CNC(=O)c2cc(Cl)c3c(c2C)O[C@@](C)([C@H]2CC[C@H](N(C)C)CC2)O3)c(=O)[nH]1	LC-MS/MS	human male, plasma	oral, 200 mg, single dose, [14C]-labelled	1940 ng/mL
NC1(C(=O)N[C@@H](CCO)c2ccc(Cl)cc2)CCN(c2nc[nH]c3nccc2-3)CC1		human patients, plasma	dose not given, cohort 160/480, cycle 0, geometric mean	1060 ng/mL
CCOc1c([C@H](C)n2nc(C)c3c(N)ncnc32)cc(Cl)c(F)c1[C@@H]1CNC(=O)C1		human patients, plasma	oral, 30 mg, day 1	2260 nM
